Measured values gathered from unrelated publications.
Every numbered part comes from another study and shows a few of its results, in no order.

Series 1
Target: RNA binding protein fox-1 homolog 2, RRM domain, GST-SBP tag (RBFOX2, Homo sapiens, UniProt O43251-10, residues 100-194)
Method: RNA Bind-n-Seq
Form: RNA
Matrix: in vitro
Concentration: 365 nM
Setting: natural RNA segment, single round, ends assumed
Reference: no-protein control
Direction: higher = stronger binding
Construct (chain): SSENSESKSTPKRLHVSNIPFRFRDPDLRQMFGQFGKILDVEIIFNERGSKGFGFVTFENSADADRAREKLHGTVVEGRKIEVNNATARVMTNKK
Strand | RBNS enrichment (R)
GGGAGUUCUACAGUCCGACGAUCGACUGACAUCCCAGGUGUCACAGGCUCAGGGAGUGGCACCAGGUCACCUCUCCAGGGACUGAGCAUCAUUGGCUCAUUGUCAUGGGGAGCUCCCUCCUGACCACGGAGGCUGGAAUUCUCGGGUGCCAA | 0.354
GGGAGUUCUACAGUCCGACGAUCACGGUGCCAAAAUUCAUUUUCUAACACCAUGUGUUAGAAAAUUAUAAAAAAUAAAAUAAUUUUAGAAGUUUUGUUGUUCUAUUAUUGGUGUUUAUCUUCCAACGUGAAUAUGGAAUUCUCGGGUGCCAA | 0.836
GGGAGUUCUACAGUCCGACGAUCAAAACCAUUUGGCUGGCAGAAAUUAUCUAGAAAAAUUAUUAUUUUGCAGUUAUCUGAGACACCAAACUUACCAUCCUUUAUUUUACAAUAUUUUUGAUCGACCAAAUAAAUGGAAUUCUCGGGUGCCAA | 0.576
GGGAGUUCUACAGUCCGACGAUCCCCUCACCAAAACUCACACAGUUGCGAGAAGAGCUGCUGUCUGUGGACACGUAGAGAAAGGACAUUCAUGACAUCCCUGUGGUGUGGUUAAUGUGCGACGUGUCGCCCAAUGGAAUUCUCGGGUGCCAA | 0.243
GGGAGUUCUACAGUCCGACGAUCGUUUAUGUAAUAGUUCUAUCCUUUUGCCUGCAGGUCAGUUGUAAUAAAUCUAGGAUGUGAUGAUGACUUUGUAAUUUGAUUUUCUGAAAUCAGACCCUGAGAGGGGAAAAUGGAAUUCUCGGGUGCCAA | 13.6
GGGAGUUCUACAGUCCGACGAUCUCUGAUUAAUUGCUCUAUUAAAAUAAGGGGCAUUUAAAGACCCAGCAUAACCAUUUGUAUAAUGAGAAAUCUAGGGGAAAACCAAUCAGUCCAACAUGAGAUUUUAGGAAUGGAAUUCUCGGGUGCCAA | 0.408
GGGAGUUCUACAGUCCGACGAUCUAAUAGAUGAAGAGGUCUUAUUCAGAUGCUUCAUGUCCAUUUUACAUUACCCAUCUACUGUCGCAUGGUAGGAUAGCUUUUUGUCUCUGAAUAUGUGAAUAACUUGACUUUGGAAUUCUCGGGUGCCAA | 1.37
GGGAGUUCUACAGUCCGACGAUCUAGGAUACUUUUAUAUGAUGGGUGCUUUGAGUGUGAAUGCAGCAGGCUCUAUCUCAGAGGUGCUGCUCUUGCAGGUGACCUGGUUGCAUAGCUAGGAUUAGUAAUUUGUAUGGAAUUCUCGGGUGCCAA | 1.05
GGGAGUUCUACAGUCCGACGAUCGUUUAAAGAAAAAUAGUUCACCAAAAUUUAGUAUUAUAUAGUCUGUAUUGUUUGGUUUCAAGUCUCCUAAUUUGAAGUAUGUGGUGUAAUAUUGCAACCCAGUAUAGGUGUGGAAUUCUCGGGUGCCAA | 1.28

Series 2
Target: Phosphate system positive regulatory protein PHO4, full length, GST-tagged (PHO4, Saccharomyces cerevisiae, UniProt P07270, residues 1-312)
Method: competition protein-binding microarray
Form: double-stranded DNA, one strand shown
Matrix: in vitro
Concentration: 2 µM
Setting: whole 60-bp probe, lowest competitor level
Together with: Cbf1 competitor, 0.05 µM
Direction: higher = stronger binding
Construct (chain): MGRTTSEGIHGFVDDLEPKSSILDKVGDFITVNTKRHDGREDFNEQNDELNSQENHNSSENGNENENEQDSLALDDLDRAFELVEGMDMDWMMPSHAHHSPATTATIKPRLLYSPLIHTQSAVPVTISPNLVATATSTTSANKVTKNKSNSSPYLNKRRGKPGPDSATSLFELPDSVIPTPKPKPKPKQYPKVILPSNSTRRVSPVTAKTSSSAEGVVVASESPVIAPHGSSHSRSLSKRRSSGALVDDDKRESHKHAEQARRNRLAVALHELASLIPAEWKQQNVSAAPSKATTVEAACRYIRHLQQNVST
Strand | fluorescence intensity [a.u.]
AGTTCTCTATTCCGCACCGTGCCGAGTTGTGGCAAAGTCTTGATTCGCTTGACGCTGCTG | 9920
AATGAGCAAAACTGGCACGATCCTGAAAAGAGCACTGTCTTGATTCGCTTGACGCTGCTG | 8910
CAATCTGATGATGTGGTCGTGGGTAGGCTTAGCCAAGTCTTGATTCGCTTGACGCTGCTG | 6870
CTTCTGTAAATTTGCCTCGTGGGTGGACGCGCCCCGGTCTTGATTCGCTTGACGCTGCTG | 12000
TTCTGTATTCCGGCGCAGGTGATGAACTTGATTACGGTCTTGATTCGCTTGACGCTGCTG | 5610
GGTTGCGAGAGAAGAGGCGTGTCGGAAAAAAAAACGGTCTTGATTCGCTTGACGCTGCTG | 8500
AAAGCGGTAATTTGTCACGGCACTTCACATATCTATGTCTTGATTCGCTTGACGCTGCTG | 4330
GCGGGCCGCTTTCCGCACGGCCTTATCTGGGGAATGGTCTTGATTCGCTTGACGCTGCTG | 5150
AGACATGTCGAATCGCACGCTGTTGCATTAAAAGTAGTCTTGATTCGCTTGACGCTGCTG | 9830
TCTTACAATGTTCCGCACGTTTATCAAAGTGTTACAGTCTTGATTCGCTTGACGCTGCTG | 13800
CTTCTGTAAATTTGCTATGTGGGTGGACGCGCCCCGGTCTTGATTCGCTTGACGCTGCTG | 4780
GTCTTGTCTCATTGCTGCGTGGGTGTCCCCACTTCAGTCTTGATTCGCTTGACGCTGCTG | 8090
GTCTTGTCTCATTTTCACGTGTGGTTCCCCACTTCAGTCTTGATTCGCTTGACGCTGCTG | 11900
GTCTTGTCTCATTGGACAGTGGGTGTCCCCACTTCAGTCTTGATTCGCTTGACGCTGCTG | 4320
CGGGGTTAAGTTTGGCTAGTGGGTGGCTTGCAGCAGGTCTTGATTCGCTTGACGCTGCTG | 4820
ATCAGATCAAACTGGCACGTGCCAGATTTGGTTTAGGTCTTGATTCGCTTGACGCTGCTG | 17800
GAAAAGCTTATTTTTTTCGTGCAAACTCCGTTCTTAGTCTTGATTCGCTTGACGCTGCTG | 3490
CTTTCCCGATCTTGTCTCGTGGGTGTAGCACATTTGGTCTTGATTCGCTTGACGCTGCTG | 9290
CTAACGAAGGTTTGTCACATAACTTACAAGCCAAGTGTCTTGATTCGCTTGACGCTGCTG | 3580
CTAACGAAGGTTTGTCACGGCACTTACAAGCCAAGTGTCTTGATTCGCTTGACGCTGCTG | 3870
TGATGTTTTGACTGTCATGCTACAAATGTTGGATGAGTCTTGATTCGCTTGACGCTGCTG | 5390
AGTTGTTAGATAAAGCACGTGTAGCATTGTACAATTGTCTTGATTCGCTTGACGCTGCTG | 18600

Series 3
Target: TAR DNA-binding protein 43, full length, His tag (TARDBP, Homo sapiens, UniProt Q13148, residues 1-414)
Method: RNA Bind-n-Seq
Form: RNA
Matrix: in vitro
Concentration: 20 nM
Setting: 6-mer, flanks averaged, single round
Together with: 150 mM KCl
Reference: input library
Direction: higher = stronger binding
Strand | 6-mer enrichment (R)
AAUAGA | 0.698
AGAGAA | 0.902
UUCUAG | 0.604
GGACUC | 0.969
UCUAUC | 0.525
GCGAUA | 0.825
CCGGUC | 0.761
CUCGGU | 0.721
AUUUAG | 0.648
GACACA | 0.8
UCAAAA | 0.611
CUCCGG | 0.852
GUAAUA | 0.682
UCACAU | 0.569
UACGCG | 0.964
AGCAUC | 0.615
GGGGAU | 3.75
UAAACG | 0.674
UACCAC | 0.613
CCUCUG | 0.634
GGAACA | 1.08
AUGGAC | 0.849
CUGGGA | 1.85
CGAGCA | 0.847
GCCAUC | 0.68

Series 4
Target: Ras GTPase-activating protein-binding protein 1, full length (G3BP1, Homo sapiens, UniProt Q13283)
Chain of UniProt Q13283 (whole entry, looked up): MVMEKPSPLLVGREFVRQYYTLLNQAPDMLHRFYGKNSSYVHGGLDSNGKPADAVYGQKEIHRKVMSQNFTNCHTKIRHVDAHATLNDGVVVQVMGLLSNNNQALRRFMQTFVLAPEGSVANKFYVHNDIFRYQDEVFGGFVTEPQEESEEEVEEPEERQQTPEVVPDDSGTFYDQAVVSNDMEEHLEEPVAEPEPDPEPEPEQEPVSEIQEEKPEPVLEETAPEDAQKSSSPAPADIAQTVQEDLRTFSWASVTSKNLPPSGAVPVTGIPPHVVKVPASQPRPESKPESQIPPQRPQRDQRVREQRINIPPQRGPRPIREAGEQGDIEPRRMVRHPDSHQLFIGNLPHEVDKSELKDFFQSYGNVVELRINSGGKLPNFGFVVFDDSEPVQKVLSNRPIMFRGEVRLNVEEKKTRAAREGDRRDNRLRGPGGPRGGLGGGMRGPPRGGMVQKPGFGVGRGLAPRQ
Method: RNA Bind-n-Seq
Form: RNA
Matrix: in vitro
Concentration: 200 nM
Setting: whole 134-nt RNA, ends assumed
Together with: 150 mM LiCl
Reference: input library
Direction: higher = stronger binding
Library: 7-deaza-guanosine replaces G
Strand | log2 enrichment
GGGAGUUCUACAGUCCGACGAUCUCAAGUCCUGUGCUACACAUCGUAUGUACCGAAUCGGGUUUGGGUUUGGGAGGGAAAGUAUUAUGUUACGCCGUUCGGAUCUGCACUUCCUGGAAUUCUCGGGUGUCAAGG | -0.118
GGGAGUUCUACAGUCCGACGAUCCAAGUCCUGUGCUACACAUCGUAUGUACCGAAUCGGGGAAAGGGGAAAGGAAAGGAAAGUAUUAUGUUACGCCGUUCGGAUCUGCACUUCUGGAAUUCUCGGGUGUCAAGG | 0.0736
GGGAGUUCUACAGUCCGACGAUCGUCCUGUGCUACACAUCGUAUGUACCGAAUCGGGGUGGGGUUUGGGGAAAAAAAGGGGAAAGUAUUAUGUUACGCCGUUCGGAUCUGCACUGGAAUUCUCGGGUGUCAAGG | -0.697
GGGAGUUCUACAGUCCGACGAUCUCAAGUCCUGUGCUACACAUCGUAUGUACCGAAUCGGAAAGGUUUGGUUUUUGGAAAGUAUUAUGUUACGCCGUUCGGAUCUGCACUUCCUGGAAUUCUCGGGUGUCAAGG | -0.288
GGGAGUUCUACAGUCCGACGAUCACCAUGCAGGUGGGCAUCUUUGGGAAGUGGGGCAAGGGGGGGAUAGGGAGGGGGGUAACACUUUGGGAACAGGUGGUCCCAGGUCGGUUCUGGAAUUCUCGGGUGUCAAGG | 0.266
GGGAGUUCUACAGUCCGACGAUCUGGCCCUGGUGGCAUGCGGGGAGGAAGAGGUGGCCUCAUGGAUCGUGGUGGUCCCGGUGGAAUGUUCAGAGGUGGCCGUCGUGGAGACAGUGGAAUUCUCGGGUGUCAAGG | -0.261
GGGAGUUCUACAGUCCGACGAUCUAACUUUAGAGGAGGAUCUGAUGGAUAUGGCACUGGACGUGGAUUUGGGGAUGGCUAUAAUGGGUAUGGAGGAGGACCUGGAGGUGGCAAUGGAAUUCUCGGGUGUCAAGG | -0.236
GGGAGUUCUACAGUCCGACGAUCUCAAGUCCUGUGCUACACAUCGUAUGUACCGAAUCGGGGUUGGGUUGGUUGGGGAAAGUAUUAUGUUACGCCGUUCGGAUCUGCACUUCCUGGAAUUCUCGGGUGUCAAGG | 0.206
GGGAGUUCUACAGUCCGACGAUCAGUCCUGUGCUACACAUCGUAUGUACCGAAUCGGGGAAAGGGGUUUUUGGGGAGGGGAAAGUAUUAUGUUACGCCGUUCGGAUCUGCACUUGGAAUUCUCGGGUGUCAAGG | -0.397
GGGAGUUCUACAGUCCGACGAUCGCAGGAAGUAAAAACAAAUGGAAAUGCUUCGGAUAGUGGCAGGAGUGGGGGUUGCUAAGGAAAGGGUGGGAUGGGAGUGGGUAAAGAGUUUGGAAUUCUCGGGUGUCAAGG | 0.182
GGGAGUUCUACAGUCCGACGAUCUCCUGUGCUACACAUCGUAUGUACCGAAUCGGGUUUUUGGGUUUUUUUGGGUUUUUGGGAAAGUAUUAUGUUACGCCGUUCGGAUCUGCAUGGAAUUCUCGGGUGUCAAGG | 0.682

Some of these lines once more (series 2):
Strand | fluorescence intensity [a.u.]
GGTTGCGAGAGAAGAGGCGTGTCGGAAAAAAAAACGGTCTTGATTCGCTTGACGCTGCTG | 8500
AGTTCTCTATTCCGCACCGTGCCGAGTTGTGGCAAAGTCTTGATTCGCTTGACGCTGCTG | 9920
GCGGGCCGCTTTCCGCACGGCCTTATCTGGGGAATGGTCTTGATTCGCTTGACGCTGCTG | 5150
TGATGTTTTGACTGTCATGCTACAAATGTTGGATGAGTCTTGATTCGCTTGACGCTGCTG | 5390
